# Experimental data collected from several papers.
# Lines come from different studies, so protocols differ. ± marks the error that the study gave.
# B1: TNKS 1026-1092 (Homo sapiens, UniProt O95271); sequence looked up; chain GLDMNISQFLKSLGLEHLRDIFETEQITLDVLADMGHEELKEIGINAYGHRHKLIKGVERLLGGQQG
# B2: tsaC1 1-252 (Comamonas testosteroni, UniProt P94681); chain MNLNKQVAIVTGGASGFGAAIARRLSQAGAAVLVADLNAEGAQRMATELNAAGGRALGMACDVSKEADYRAVVDAAIAQLGGLHIVVNNAGTTHRNKPALAVTEDEFDRVYRVNLKSVYWSAQCALPHFAQQGHGVMVNVASTTGVRPGPGLTWYSGSKAAMINLTKGLALEFARSGVRINAVNPMIGETPMMADFMGMEDTPANRERFLSRIPLGRFTRPDDVASAVAFLASDDASFLTGVCLDVDGGRNI
# B3: TOP2 C180A/C731A/K804C (Saccharomyces cerevisiae, UniProt P06786); AlexaFluor 488/546 labels; sequence looked up; chain MSTEPVSASDKYQKISQLEHILKRPDTYIGSVETQEQLQWIYDEETDCMIEKNVTIVPGLFKIFDEILVNAADNKVRDPSMKRIDVNIHAEEHTIEVKNDGKGIPIEIHNKENIYIPEMIFGHLLTSSNYDDDEKKVTGGRNGYGAKLCNIFSTEFILETADLNVGQKYVQKWENNMSIAHPPKITSYKKGPSYTKVTFKPDLTRFGMKELDNDILGVMRRRVYDINGSVRDINVYLNGKSLKIRNFKNYVELYLKSLEKKRQLDNGEDGAAKSDIPTILYERINNRWEVAFAVSDISFQQISFVNSIATTMGGTHVNYITDQIVKKISEILKKKKKKSVKSFQIKNNMFIFINCLIENPAFTSQTKEQLTTRVKDFGSRCEIPLEYINKIMKTDLATRMFEIADANEENALKKSDGTRKSRITNYPKLEDANKAGTKEGYKCTLVLTEGDSALSLAVAGLAVVGRDYYGCYPLRGKMLNVREASADQILKNAEIQAIKKIMGLQHRKKYEDTKSLRYGHLMIMTDQDHDGSHIKGLIINFLESSFPGLLDIQGFLLEFITPIIKVSITKPTKNTIAFYNMPDYEKWREEESHKFTWKQKYYKGLGTSLAQEVREYFSNLDRHLKIFHSLQGNDKDYIDLAFSKKKADDRKEWLRQYEPGTVLDPTLKEIPISDFINKELILFSLADNIRSIPNVLDGFKPGQRKVLYGCFKKNLKSELKVAQLAPYVSEATAYHHGEQSLAQTIIGLAQNFVGSNNIYLLLPNGAFGTRATGGKDAAAARYIYTELNKLTRKIFHPADDPLYCYIQEDEKTVEPEWYLPILPMILVNGAEGIGTGWSTYIPPFNPLEIIKNIRHLMNDEELEQMHPWFRGWTGTIEEIEPLRYRMYGRIEQIGDNVLEITELPARTWTSTIKEYLLLGLSGNDKIKPWIKDMEEQHDDNIKFIITLSPEEMAKTRKIGFYERFKLISPISLMNMVAFDPHGKIKKYNSVNEILSEFYYVRLEYYQKRKDHMSERLQWEVEKYSFQVKFIKMIIEKELTVTNKPRNAIIQELENLGFPRFNKEGKPYYGSPNDEIAEQINDVKGATSDEEDEESSHEDTENVINGPEELYGTYEYLLGMRIWSLTKERYQKLLKQKQEKETELENLLKLSAKDIWNTDLKAFEVGYQEFLQRDAEARGGNVPNKGSKTKGKGKRKLVDDEDYDPSKKNKKSTARKGKKIKLEDKNFERILLEQKLVTKSKAPTKIKKEKTPSVSETKTEEEENAPSSTSSSSIFDIKKEDKDEGELSKISNKFKKISTIFDKMGSTSATSKENTPEQDDVATKKNQTTAKKTAVKPKLAKKPVRKQQKVVELSGESDLEILDSYTDREDSNKDEDDAIPQRSRRQRSSRAASVPKKSYVETLELSDDSFIEDDEEENQGSDVSFNEED
# B4: POL30 K127G/K164C (Saccharomyces cerevisiae, UniProt P15873); sequence looked up; chain MLEAKFEEASLFKRIIDGFKDCVQLVNFQCKEDGIIAQAVDDSRVLLVSLEIGVEAFQEYRCDHPVTLGMDLTSLSKILRCGNNTDTLTLIADNTPDSIILLFEDTKKDRIAEYSLKLMDIDADFLGIEELQYDSTLSLPSSEFSKIVRDLSQLSDSINIMITCETIKFVADGDIGSGSVIIKPFVDMEHPETSIKLEMDQPVDLTFGAKYLLDIIKGSSLSDRVGIRLSSEAPALFQFDLKSGFLQFFLAPKFNDEE
# B5: SPOP R70L (Homo sapiens, UniProt O43791); sequence looked up; chain MSRVPSPPPPAEMSSGPVAESWCYTQIKVVKFSYMWTINNFSFCREEMGEVIKSSTFSSGANDKLKWCLLVNPKGLDEESKDYLSLYLLLVSCPKSEVRAKFKFSILNAKGEETKAMESQRAYRFVQGKDWGFKKFIRRDFLLDEANGLLPDDKLTLFCEVSVVQDSVNISGQNTMNMVKVPECRLADELGGLWENSRFTDCCLCVAGQEFQAHKAILAARSPVFSAMFEHEMEESKKNRVEINDVEPEVFKEMMCFIYTGKAPNLDKMADDLLAAADKYALERLKVMCEDALCSNLSVENAAEILILADLHSADQLKTQAVDFINYHASDVLETSGWKSMVVSHPHLVAEAYRSLASAQCPFLGPPRKRLKQS
# B6: APPBP2 1-584 (Homo sapiens, UniProt Q92624); chain MAAVELEWIPETLYNTAISAVVDNYIRSRRDIRSLPENIQFDVYYKLYQQGRLCQLGSEFCELEVFAKVLRALDKRHLLHHCFQALMDHGVKVASVLAYSFSRRCSYIAESDAAVKEKAIQVGFVLGGFLSDAGWYSDAEKVFLSCLQLCTLHDEMLHWFRAVECCVRLLHVRNGNCKYHLGEETFKLAQTYMDKLSKHGQQANKAALYGELCALLFAKSHYDEAYKWCIEAMKEITAGLPVKVVVDVLRQASKACVVKREFKKAEQLIKHAVYLARDHFGSKHPKYSDTLLDYGFYLLNVDNICQSVAIYQAALDIRQSVFGGKNIHVATAHEDLAYSSYVHQYSSGKFDNALFHAERAIGIITHILPEDHLLLASSKRVKALILEEIAIDCHNKETEQRLLQEAHDLHLSSLQLAKKAFGEFNVQTAKHYGNLGRLYQSMRKFKEAEEMHIKAIQIKEQLLGQEDYEVALSVGHLASLYNYDMNQYENAEKLYLRSIAIGKKLFGEGYSGLEYDYRGLIKLYNSIGNYEKVFEYHNVLSNWNRLRDRQYSVTDALEDVSTSPQSTEEVVQSFLISQNVEGPS
# B7: spo0J K252A/K255A/K259A (Bacillus subtilis, UniProt P26497); chain MAKGLGKGINALFNQVDLSEETVEEIKIADLRPNPYQPRKHFDDEALAELKESVLQHGILQPLIVRKSLKGYDIVAGERRFRAAKLAGLDTVPAIVRELSEALMREIALLENLQREDLSPLEEAQAYDSLLKHLDLTQEQLAKRLGKSRPHIANHLRLLTLPENIQQLIAEGTLSMGHGRTLLGLKNKNKLEPLVQKVIAEQLNVRQLEQLIQQLNQNVPRETKKKEPVKDAVLKERESYLQNYFGTTVNIARQAKKGAIEIEFFSNEDLDRILELLSERES
# B8: PHYA 1-950 (Arabidopsis thaliana, UniProt P14712); phytochromobilin thioether linked; chain GMSGSRPTQSSEGSRRSRHSARIIAQTTVDAKLHADFEESGSSFDYSTSVRVTGPVVENQPPRSDKVTTTYLHHIQKGKLIQPFGCLLALDEKTFKVIAYSENASELLTMASHAVPSVGEHPVLGIGTDIRSLFTAPSASALQKALGFGDVSLLNPILVHCRTSAKPFYAIIHRVTGSIIIDFEPVKPYEVPMTAAGALQSYKLAAKAITRLQSLPSGSMERLCDTMVQEVFELTGYDRVMAYKFHEDDHGEVVSEVTKPGLEPYLGLHYPATDIPQAARFLFMKNKVRMIVDCNAKHARVLQDEKLSFDLTLCGSTLRAPHSCHLQYMANMDSIASLVMAVVVNEEDGEGDAPDATTQPQKRKRLWGLVVCHNTTPRFVPFPLRYACEFLAQVFAIHVNKEVELDNQMVEKNILRTQTLLCDMLMRDAPLGIVSQSPNIMDLVKCDGAALLYKDKIWKLGTTPSEFHLQEIASWLCEYHMDSTGLSTDSLHDAGFPRALSLGDSVCGMAAVRISSKDMIFWFRSHTAGEVRWGGAKHDPDDRDDARRMHPRSSFKAFLEVVKTRSLPWKDYEMDAIHSLQLILRNAFKDSETTDVNTKVIYSKLNDLKIDGIQELEAVTSEMVRLIETATVPILAVDSDGLVNGWNTKIAELTGLSVDEAIGKHFLTLVEDSSVEIVKRMLENALEGTEEQNVQFEIKTHLSRADAGPISLVVNACASRDLHENVVGVCFVAHDLTGQKTVMDKFTRIEGDYKAIIQNPNPLIPPIFGTDEFGWCTEWNPAMSKLTGLKREEVIDKMLLGEVFGTQKSCCRLKNQEAFVNLGIVLNNAVTSQDPEKVSFAFFTRGGKYVECLLCVSKKLDREGVVTGVFCFLQLASHELQQALHVQRLAERTAVKRLKALAYIKRQIRNPLSGIMFTRKMIEGTELGPEQRRILQTSALCQKQLSKILDD
# B9: halA (Haloferax volcanii, UniProt D4GZ39); sequence looked up; chain MSLGTDPLDALEIPDGTTVEEHDLVTDGDVVVGGQSTVEFGVRGRNVLAGERVTFGGDIEAEADCRLDMLDDVAGNVLVGNDAYLGERVHIAGRLMVSGDLDIGDDVDIEEGFEANGWIVIRNPIPTLVFYFIVLSQLLRLGEDEAADELAETLAGESPHDPLVIPRNATVSDDAWRVSTPAHVGSDCRIHGNIRAKSIDLAEDNNVFGSLRARDDIVVGSGTRIHGDVTTRNGEVRIHEDARVLGDVSCNDLVLEAGAHVDGTMRARGEMRIHRDNLPREAE
# B10: OsCATC T105D (Oryza sativa, UniProt Q10S82); sequence looked up; chain MDPYKHRPSSSFNGPLWSTNSGAPVWNNNNSLTVGSRGPILLEDYHLVEKLANFDRERIPERVVHARGASAKGFFEVTHDITHLTCADFLRAPGVQTPVIVRFSDVIHERGSPETLRDPRGFAIKFYTREGNWDLVGNNFPVFFIRDGMKFPDMVHSLKPNPKSHVQENWRILDFFSHHPESLHMFTFLFDDIGIPADYRHMDGSGVNTYTLVNRAGKSHYVKFHWKPTCGVKSLLDDEAVTVGGTNHSHATQDLYDSIAAGNFPEWKLFIQTIDPDHEDRFDFDPLDVTKTWPEDIVPLQPVGRMVLNRNIDNFFSENEQLAFCPGIIVPGIYYSDDKLLQTRIFSYSDTQRHRLGPNYLLLPPNAPKCAHHNNHYDGFMNFMHRDEEVDYFPSRYDPAKHAPRYPIPSATLTGRREKVVIAKENNFKQPGERYRSWDPARQDRFIKRWIDALSDPRLTHEIRSIWLSYWSQADRSLGQKLASRLSAKPSM
# Sequence of UniProt P26368 (whole entry, looked up): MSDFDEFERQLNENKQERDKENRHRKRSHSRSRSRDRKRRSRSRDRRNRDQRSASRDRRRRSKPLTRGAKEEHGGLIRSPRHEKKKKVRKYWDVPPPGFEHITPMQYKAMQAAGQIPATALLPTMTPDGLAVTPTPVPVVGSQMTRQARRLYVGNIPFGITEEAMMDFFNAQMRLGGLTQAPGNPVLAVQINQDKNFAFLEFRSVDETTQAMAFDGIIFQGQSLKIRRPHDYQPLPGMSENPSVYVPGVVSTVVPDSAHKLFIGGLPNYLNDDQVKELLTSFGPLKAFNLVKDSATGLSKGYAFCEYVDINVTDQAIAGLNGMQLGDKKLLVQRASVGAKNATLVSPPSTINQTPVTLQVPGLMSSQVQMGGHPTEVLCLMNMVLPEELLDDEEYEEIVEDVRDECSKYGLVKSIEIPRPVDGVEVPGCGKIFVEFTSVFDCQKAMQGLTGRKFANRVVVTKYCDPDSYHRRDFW
# Sequence of UniProt P13393 (whole entry, looked up): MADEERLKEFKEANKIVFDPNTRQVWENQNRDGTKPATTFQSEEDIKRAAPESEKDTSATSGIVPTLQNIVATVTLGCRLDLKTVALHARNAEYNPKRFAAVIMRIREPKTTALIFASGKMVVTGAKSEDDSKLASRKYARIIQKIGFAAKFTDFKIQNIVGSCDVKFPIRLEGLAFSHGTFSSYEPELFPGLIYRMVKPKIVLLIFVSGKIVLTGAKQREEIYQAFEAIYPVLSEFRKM
Molecule,tested on,assay,system,conditions,endpoint,result
B1 (TNKS 1026-1092),itself,crystal structure,,,binding,binds
B2 (tsaC1 1-252),itself,SEC,,,binding,binds
B3 (TOP2 C180A/C731A/K804C),itself,FRET or BRET,,"together with: ADP, ATP, ADPNP",binding,binds
B4 (POL30 K127G/K164C),itself,SEC,,,binding,binds
GGUUUGUGU (ssRNA),"U2AF2 148-342 (Homo sapiens, UniProt P26368)",sequencing of bound RNA,RNA,motif only,Kd,4960 nM
B5 (SPOP R70L),itself,negative-stain TEM,,,binding,binds
B6 (APPBP2 1-584),itself,cryo-EM,,,binding,binds
B7 (spo0J K252A/K255A/K259A),itself,SEC-MALS,,,binding,binds
B8 (PHYA 1-950),itself,SEC,,,binding,binds
DNA 1 GCCGGGCCGGCCGGCCGGCCCCCGGGGCCCGGCGCTCAATTCAATCGGTCC / DNA 2 GGACCGATTGACTTGAGCGCCGGGCCCCGGGGGCCGGCCGGCCGGCCCGGC (dsDNA; blunt; C:T mismatch; 5'-amino-C6 primer),"SPT15 full length assumed (Saccharomyces cerevisiae, UniProt P13393)",EMSA,double-stranded DNA,,Kd,5.9 ± 2.6 nM
B9 (halA),itself,negative-stain TEM,,,binding,binds
human ME2 Q51H,,"enzyme activity, NADH absorbance",,"with fumarate 3 mM, together with: L-malate varied",Hill coefficient,1.16 ± 0.09
B10 (OsCATC T105D),itself,cross-linking,,,binding,binds

# Repeated from above:
Molecule,tested on,assay,system,conditions,endpoint,result
B6 (APPBP2 1-584),itself,cryo-EM,,,binding,binds
B9 (halA),itself,negative-stain TEM,,,binding,binds
